Measurements of several laboratories.
Protocols differ between the studies behind these lines. ± gives the spread as reported.

CCCCCCCCCCCC(=O)Nc1ccccc1SSc1ccccc1NC(=O)CCCCCCCCCCC — viability (HaCaT; cell growth or viability, MTT; 10 mg/mL, 24 h): 100%
Cc1ccc(S(=O)(=O)Nn2c3c(cc(-c4nc5ccccc5s4)c2=O)CCCC3)cc1 — maximum non-toxic concentration (Huh7.5; trypan blue; 72 h): 130 µg/mL
Cc1[nH]c2ccccc2c1CCNC(=O)c1ccccc1F — mitotic index (SKOV; up to 80 µM): no effect
COC1CCC2(C)C3=C(CCC2C1(C)C)C1(C)CCC(C(C)CCC=C(C)C)C1(C)CC3 (stereo not drawn) — inhibition (MCF7; cell growth or viability, SRB; 50 µM): 4.3%
Cc1nc([C@@H](NC(=O)c2ccc(-c3ccc(Cl)cc3)[nH]2)[C@H]2CCCCN2)sc1CO — CC50 (U87.CD4.CXCR4; cell growth or viability, XTT): ~30 µM
O=C(CC1CC=CCCCCC(=O)OC(c2ccccc2)CNC1=O)NCc1ccc(Cl)cc1 (stereo not drawn) — cytotoxic concentration (Shh Light2; CellTiter-Glo; cytotoxic above value): > 31 µM
CC(=O)O[C@@H]1[C@@H](OC(C)=O)[C@H](Sc2sc(C(=O)c3ccc(Br)cc3)c(N)c2-c2nc3ccccc3s2)OC[C@H]1OC(C)=O — maximum non-toxic concentration (Huh7.5; cytotoxicity; 72 h): 100 µg/mL
CCOC(=O)c1cc2c(N)c(C(=O)OC)sc2nc1C — urea permeability (UT-B knockout mouse erythrocytes; osmotic lysis; concentration not given): no effect
CCOC(=O)[C@@H](C)NP(=O)(CO[C@H](CF)Cn1cnc(N)nc1=O)N[C@H](C)C(=O)OCC — minimum cytotoxic concentration (HEL; cell morphology): > 100 µM
CC(=O)c1c(C)c2cnc(Nc3ccc(N4CCNCC4)cn3)nc2n(C2CCCC2)c1=O — viability (recombinant mAb-expressing CHO cells; 24-deep-well plate production; production medium; 5 to 10 µM, 5 days, daily medium exchange): > 80%
Cc1ccc2nc(-c3ccc4nc(-c5ccc(N(C)C(=O)c6ccc7ccccc7c6)cc5)sc4c3)sc2c1S(=O)(=O)O — viability (Huh7.5; 10 µM): 98 ± 1%
COc1cc(O)c(-c2c(O)cc(OC)c3c2ccc2cc(O)ccc23)c2ccc3ccccc3c12 — viability (BV-2; cell growth or viability, MTT; 10 µM, 24 h): 98.3%
CC(=O)N[C@H](C(=O)N[C@H](C(=O)N[C@@H](CCCNC(=N)N)C(=O)N1Cc2ccccc2C[C@H]1C(=O)N[C@@H](Cc1ccccc1)C(N)=O)C1CCCCC1)C(C)C — cytokine level (human PBMC; Bio-Plex multiplex, refers to: IL-12(p70); 250 µg/mL, 24 h): 4.5 ± 1.2 pg/mL
CC(=O)OC[C@H]1O[C@@H](Sc2sc(C(=O)c3ccc(Cl)cc3)c(N)c2-c2nc3ccccc3s2)[C@H](OC(C)=O)[C@@H](OC(C)=O)[C@@H]1OC(C)=O — maximum non-toxic concentration (Huh7.5; cytotoxicity; 72 h): 90 µg/mL
COc1cc(O)cc2c1-c1ccc(O)c(OC)c1CC2 — viability (BV-2; cell growth or viability, MTT; 20 µM, 24 h): 98.8%
CCOC(=O)c1cc(-c2nc3ccccc3s2)c(=O)n(NS(=O)(=O)c2ccccc2)c1N — maximum non-toxic concentration (Huh7.5; trypan blue; 72 h): 100 µg/mL
CCC1(C)CCN(Cc2cc(N(C)C)c3c(c2O)C(=O)C2=C(O)[C@]4(O)C(=O)C(C(N)=O)=C(O)[C@@H](N(C)C)[C@@H]4C[C@@H]2C3)CC1 — TC50 (COS; cytotoxicity, resazurin; 10% fetal calf serum): > 100 µg/mL
CCCCn1cc(C(=O)O)c(=O)c2cc(F)c3c(nnn3-c3ccccc3OC)c21 — IC50 (MCF7; cell growth or viability, SRB): 77.6 µM
O=c1ccn(CCCCCOc2ccc(Br)cc2)c(=O)n1Cc1ccc2ccccc2c1 — minimum cytotoxic concentration (HEL; cell morphology): 20 µM
CCCC[C@H](NC(=O)[C@H](CC(=O)O)NC(=O)[C@H](CC(=O)O)NC(=O)[C@H](CCC(=O)O)NC(=O)[C@H](Cc1ccc(O)cc1)NC(=O)[C@H](CC(=O)O)NC(=O)[C@H](CC(=O)O)NC(=O)[C@H](CCC(=O)O)NC(=O)[C@H](CC(C)C)NC(=O)[C@H](CCC(=O)O)NC(=O)[C@H](CCC(=O)O)NC(=O)c1ccc2c(c1)C1(OC2=O)c2ccc(O)cc2Oc2cc(O)ccc21)C(=O)N[C@@H](CCC(=O)O)C(=O)N[C@@H](CCC(=O)O)C(N)=O — median half-life (primary human airway epithelial cells; intracellular degradation, CE-LIF; 22 µM, 37 °C, microinjected): 28 min
CN(C)c1cc(CNC2CCCC2)c(O)c2c1C[C@H]1C[C@H]3[C@H](N(C)C)C(O)=C(C(N)=O)C(=O)[C@@]3(O)C(O)=C1C2=O — TC50 (COS; cytotoxicity, resazurin; 10% fetal calf serum): > 100 µg/mL
CCCCCCCCCCCCCC(=O)NCCCC[C@H](NC(=O)[C@H](CCCNC(=N)N)NC(C)=O)C(=O)N[C@@H](CCCNC(=N)N)C(=O)O — cellular uptake (CCRF-CEM; flow cytometry; 50 µM, 2 h, 37 °C, serum-free medium, added: fluorescein-labelled lamivudine 5 µM; baseline: labelled lamivudine alone): 1.1 fold
Cc1ccc2nc(-c3ccc(N=NNc4ccc(-c5nc6ccc(C)c(S(=O)(=O)O)c6s5)cc4)cc3)sc2c1S(=O)(=O)O — CC50 (Huh7.5; cell growth or viability, ATP luminescence; 72 h): > 100 µM
COc1cc2c(CCNC(C)=O)c[nH]c2cc1O — efflux ratio (parental MDCK-II cells; 10 µM, 4 h): 1.42 ± 0.35
CNC(=O)c1c(F)cccc1Nc1nc(Nc2cc3c(cc2OC)CCN3C(=O)CN(C)C)nc2[nH]ccc12 — pTC50 (3T3; cytotoxicity): 4.8
CN(C)c1cc(CN2CCCCC2)c(O)c2c1C[C@H]1C[C@H]3[C@H](N(C)C)C(O)=C(C(N)=O)C(=O)[C@@]3(O)C(O)=C1C2=O — TC50 (COS; cytotoxicity, resazurin; 10% fetal calf serum): > 100 µg/mL
CC(C)=CCC[C@@H](C)[C@@H]1CC[C@]2(C)C3=C(CC[C@@]12C)[C@@]1(C)CC[C@H](OC(=O)c2ccccc2)C(C)(C)[C@@H]1CC3 — inhibition (MCF7; cell growth or viability, SRB; 50 µM): 1.3%
O=C(N[C@@H](Cc1coc2ccccc12)B(O)O)[C@@H]1C[C@H]2CC[C@@H]1O2 — cytotoxicity (primary human cells; BioMAP Diversity PLUS; up to 1000 nM): not toxic
CCCCCCCCCCCCCCCC(=O)NCCCC[C@H](NC(=O)[C@H](CCCNC(=N)N)NC(C)=O)C(=O)N[C@@H](CCCNC(=N)N)C(=O)O — cellular uptake (CCRF-CEM; flow cytometry; 50 µM, 2 h, 37 °C, serum-free medium, added: fluorescein-labelled lamivudine 5 µM; baseline: labelled lamivudine alone): 1.3 fold
O=C(O)COc1cc2c(OCC(=O)O)cc1Cc1cc(OCC(=O)O)c(cc1OCC(=O)O)Cc1cc(OCC(=O)O)c(cc1OCC(=O)O)Cc1cc(OCC(=O)O)c(cc1OCC(=O)O)Cc1cc(OCC(=O)O)c(cc1OCC(=O)O)Cc1cc(OCC(=O)O)c(cc1OCC(=O)O)C2 — viability (MC3T3-E1; CCK-8; 500 µM, 24 h): > 90%
CC(=O)O[C@H]1CC[C@]2(C)C3=C(CC[C@H]2C1(C)C)[C@@]1(C)CC[C@@H]([C@H](C)CCC=C(C)C)[C@]1(C)CC3 — inhibition (MCF7; cell growth or viability, SRB; 50 µM): 20.1%
COc1ccc([C@@H]2CC(=O)c3c(O)cc(O[C@@H]4O[C@H](CO[C@@H]5O[C@@H](C)[C@H](O)[C@@H](O)[C@H]5O)[C@@H](O)[C@H](O)[C@H]4O)cc3O2)cc1O — viability (MRC5; cell growth or viability, MTS; 150 µg/mL, 72 h): 44.3%
CC(=O)OC[C@H]1O[C@@H](Sc2sc(C(=O)c3ccc(Br)cc3)c(N)c2-c2nc3ccccc3s2)[C@H](OC(C)=O)[C@@H](OC(C)=O)[C@@H]1OC(C)=O — maximum non-toxic concentration (Huh7.5; cytotoxicity; 72 h): 100 µg/mL
CCCCCCCCCCCCCCCC(=O)NCCCC[C@H](NC(=O)[C@H](CCCNC(=N)N)NC(=O)[C@H](CCCCNC(=O)CCCCCCCCCCCCCCC)NC(C)=O)C(=O)O — growth inhibition (CCRF-CEM; 100 µM, 24 h, serum-containing medium): 12%
COc1cc2c(CCNC(C)=O)c[nH]c2cc1OS(=O)(=O)O — efflux ratio (parental MDCK-II cells; 8 µM, 4 h, added: Ko143 1 µM): 0.97 ± 0.01
CCCCn1cc(C(=O)O)c(=O)c2cc(F)c(Nc3ccccc3OC)c([N+](=O)[O-])c21 — IC50 (A375-S2; cell growth or viability, SRB): 174 µM
N[C@@H](CCC(=O)N[C@@H](CCC(=O)N(O)c1ccc(Br)cc1)C(=O)NCC(=O)OC1CCCC1)C(=O)OC1CCCC1 — hemolysis (uninfected human erythrocytes; 200 µM, 48 h): > 40%
COc1ccc(-c2coc3cc(O)cc(O)c3c2=O)cc1 — CC50 (HEL; cell growth or viability; 72 h): 200 µM
CC(=O)O[C@@H]1[C@@H](OC(C)=O)[C@H](Sc2sc(C(=O)c3ccc(C)cc3)c(N)c2-c2nc3ccccc3s2)OC[C@H]1OC(C)=O — maximum non-toxic concentration (Huh7.5; cytotoxicity; 72 h): 90 µg/mL
CCCCn1cc(C(=O)O)c(=O)c2cc(F)c3c(nnn3-c3ccc(OC)cc3)c21 — IC50 (A375-S2; cell growth or viability, SRB): 96.1 µM
CC(=O)OC[C@H]1O[C@@H](Sc2sc(C(=O)c3ccc(C)cc3)c(N)c2-c2nc3ccccc3s2)[C@H](OC(C)=O)[C@@H](OC(C)=O)[C@@H]1OC(C)=O — maximum non-toxic concentration (Huh7.5; cytotoxicity; 72 h): 90 µg/mL
CCCCCCCCCCCCCC(=O)Nc1ccccc1SSc1ccccc1NC(=O)CCCCCCCCCCCCC — viability (HaCaT; cell growth or viability, MTT; 10 mg/mL, 24 h): 100%
CCCc1cc(O)nc(SCCOC(=O)[C@]2(C)CCC[C@]3(C)c4ccc(C(C)C)cc4CCC23)n1 (stereo partly drawn) — potency ratio (HCT-116 and A549; MTT; baseline: fluorouracil IC50 over compound IC50): > 2
O=c1ccn(CCCCCOc2ccc(Br)cc2)c(=O)n1Cc1ccccc1 — minimum cytotoxic concentration (HEL; cell morphology): 100 µM
Cn1cc2c(n1)CN(C(=O)Nc1nc(-c3ccc(F)cc3)ccc1N)C2 — colony formation (human bone marrow CFU-GM progenitors; 10 µM, 14 days; baseline: untreated control): 30%

For quick reference, copied from above:
CNC(=O)c1c(F)cccc1Nc1nc(Nc2cc3c(cc2OC)CCN3C(=O)CN(C)C)nc2[nH]ccc12 — pTC50 (3T3; cytotoxicity): 4.8
CN(C)c1cc(CN2CCCCC2)c(O)c2c1C[C@H]1C[C@H]3[C@H](N(C)C)C(O)=C(C(N)=O)C(=O)[C@@]3(O)C(O)=C1C2=O — TC50 (COS; cytotoxicity, resazurin; 10% fetal calf serum): > 100 µg/mL
CC(C)=CCC[C@@H](C)[C@@H]1CC[C@]2(C)C3=C(CC[C@@]12C)[C@@]1(C)CC[C@H](OC(=O)c2ccccc2)C(C)(C)[C@@H]1CC3 — inhibition (MCF7; cell growth or viability, SRB; 50 µM): 1.3%
O=C(N[C@@H](Cc1coc2ccccc12)B(O)O)[C@@H]1C[C@H]2CC[C@@H]1O2 — cytotoxicity (primary human cells; BioMAP Diversity PLUS; up to 1000 nM): not toxic
CCCCCCCCCCCCCCCC(=O)NCCCC[C@H](NC(=O)[C@H](CCCNC(=N)N)NC(C)=O)C(=O)N[C@@H](CCCNC(=N)N)C(=O)O — cellular uptake (CCRF-CEM; flow cytometry; 50 µM, 2 h, 37 °C, serum-free medium, added: fluorescein-labelled lamivudine 5 µM; baseline: labelled lamivudine alone): 1.3 fold
O=C(O)COc1cc2c(OCC(=O)O)cc1Cc1cc(OCC(=O)O)c(cc1OCC(=O)O)Cc1cc(OCC(=O)O)c(cc1OCC(=O)O)Cc1cc(OCC(=O)O)c(cc1OCC(=O)O)Cc1cc(OCC(=O)O)c(cc1OCC(=O)O)Cc1cc(OCC(=O)O)c(cc1OCC(=O)O)C2 — viability (MC3T3-E1; CCK-8; 500 µM, 24 h): > 90%
